# Results collected from several papers.
# Each line is one published result; not all experiments were run side by side. Values joined by “and” are separate records of one study, mostly repeats; a detail may differ.
# rep papain-like protease: Replicase polyprotein 1ab, papain-like protease (rep, Porcine epidemic diarrhea virus, UniProt P0C6Y4)
# PIP4K2C: Phosphatidylinositol 5-phosphate 4-kinase type-2 gamma (PIP4K2C, Homo sapiens, UniProt Q8TBX8)
# Chain of UniProt Q8TBX8 (whole entry, looked up): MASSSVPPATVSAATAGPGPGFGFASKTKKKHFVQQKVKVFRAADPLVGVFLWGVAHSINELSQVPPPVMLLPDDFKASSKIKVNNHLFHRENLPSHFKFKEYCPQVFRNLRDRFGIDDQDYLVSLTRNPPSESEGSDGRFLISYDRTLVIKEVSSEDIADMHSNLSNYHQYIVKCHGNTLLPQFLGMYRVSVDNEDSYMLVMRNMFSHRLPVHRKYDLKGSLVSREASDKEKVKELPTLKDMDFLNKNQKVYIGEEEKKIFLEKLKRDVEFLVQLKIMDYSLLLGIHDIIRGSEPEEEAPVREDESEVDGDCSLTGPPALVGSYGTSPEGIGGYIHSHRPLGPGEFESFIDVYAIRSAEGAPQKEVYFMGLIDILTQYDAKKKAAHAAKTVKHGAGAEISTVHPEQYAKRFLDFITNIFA
# AMY2: Pancreatic alpha-amylase (AMY2, Sus scrofa, UniProt P00690)
# Chain of UniProt P00690 (whole entry, looked up): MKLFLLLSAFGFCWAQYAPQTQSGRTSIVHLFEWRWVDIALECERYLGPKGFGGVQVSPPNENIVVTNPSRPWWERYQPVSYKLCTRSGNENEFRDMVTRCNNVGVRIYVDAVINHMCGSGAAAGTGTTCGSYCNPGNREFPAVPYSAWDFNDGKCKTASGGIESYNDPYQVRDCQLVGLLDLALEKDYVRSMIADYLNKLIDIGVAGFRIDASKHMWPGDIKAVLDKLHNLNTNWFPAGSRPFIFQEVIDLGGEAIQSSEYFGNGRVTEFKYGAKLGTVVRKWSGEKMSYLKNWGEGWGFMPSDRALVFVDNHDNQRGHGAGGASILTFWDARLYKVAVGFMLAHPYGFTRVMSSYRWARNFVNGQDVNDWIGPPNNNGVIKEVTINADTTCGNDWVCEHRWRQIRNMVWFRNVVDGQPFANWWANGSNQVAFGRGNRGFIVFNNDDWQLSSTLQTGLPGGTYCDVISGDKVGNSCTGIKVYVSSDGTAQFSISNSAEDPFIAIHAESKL
# NT5E: 5'-nucleotidase (NT5E, Homo sapiens, UniProt P21589)
# Chain of UniProt P21589 (whole entry, looked up): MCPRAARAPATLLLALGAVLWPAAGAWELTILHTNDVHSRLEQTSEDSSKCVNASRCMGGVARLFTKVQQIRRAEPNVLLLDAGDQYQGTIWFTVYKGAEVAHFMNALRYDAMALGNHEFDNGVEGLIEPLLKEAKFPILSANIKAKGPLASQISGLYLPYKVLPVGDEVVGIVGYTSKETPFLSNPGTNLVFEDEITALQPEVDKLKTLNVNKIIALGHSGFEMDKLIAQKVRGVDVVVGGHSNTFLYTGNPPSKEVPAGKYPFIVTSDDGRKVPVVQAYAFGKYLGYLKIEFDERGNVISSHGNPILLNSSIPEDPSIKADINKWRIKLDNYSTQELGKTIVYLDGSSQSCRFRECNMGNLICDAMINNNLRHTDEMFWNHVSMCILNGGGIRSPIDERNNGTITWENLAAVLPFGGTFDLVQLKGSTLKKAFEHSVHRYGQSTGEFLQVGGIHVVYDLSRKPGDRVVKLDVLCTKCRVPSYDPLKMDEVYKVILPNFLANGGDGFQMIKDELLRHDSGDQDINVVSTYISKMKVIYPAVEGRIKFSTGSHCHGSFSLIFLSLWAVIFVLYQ
# MAPK3: Mitogen-activated protein kinase 3 (MAPK3, Homo sapiens, UniProt P27361)
# Chain of UniProt P27361 (whole entry, looked up): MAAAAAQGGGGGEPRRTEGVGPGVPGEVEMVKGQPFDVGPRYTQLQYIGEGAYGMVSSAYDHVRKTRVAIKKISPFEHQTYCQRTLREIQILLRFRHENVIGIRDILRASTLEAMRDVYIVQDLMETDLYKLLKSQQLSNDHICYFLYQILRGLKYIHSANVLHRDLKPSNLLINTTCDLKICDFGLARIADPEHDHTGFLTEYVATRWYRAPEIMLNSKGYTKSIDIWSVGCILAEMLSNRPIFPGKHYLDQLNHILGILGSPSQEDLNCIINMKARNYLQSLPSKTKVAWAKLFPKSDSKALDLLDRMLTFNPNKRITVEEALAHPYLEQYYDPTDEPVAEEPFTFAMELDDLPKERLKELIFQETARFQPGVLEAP
# rep main protease: Replicase polyprotein 1ab, main protease (rep, Porcine epidemic diarrhea virus, UniProt P0C6Y4)
# CDK7 with cyclin H: Cyclin-dependent kinase 7, with cyclin H (CDK7, Homo sapiens, UniProt P50613)
# Chain of UniProt P05164 (whole entry, looked up): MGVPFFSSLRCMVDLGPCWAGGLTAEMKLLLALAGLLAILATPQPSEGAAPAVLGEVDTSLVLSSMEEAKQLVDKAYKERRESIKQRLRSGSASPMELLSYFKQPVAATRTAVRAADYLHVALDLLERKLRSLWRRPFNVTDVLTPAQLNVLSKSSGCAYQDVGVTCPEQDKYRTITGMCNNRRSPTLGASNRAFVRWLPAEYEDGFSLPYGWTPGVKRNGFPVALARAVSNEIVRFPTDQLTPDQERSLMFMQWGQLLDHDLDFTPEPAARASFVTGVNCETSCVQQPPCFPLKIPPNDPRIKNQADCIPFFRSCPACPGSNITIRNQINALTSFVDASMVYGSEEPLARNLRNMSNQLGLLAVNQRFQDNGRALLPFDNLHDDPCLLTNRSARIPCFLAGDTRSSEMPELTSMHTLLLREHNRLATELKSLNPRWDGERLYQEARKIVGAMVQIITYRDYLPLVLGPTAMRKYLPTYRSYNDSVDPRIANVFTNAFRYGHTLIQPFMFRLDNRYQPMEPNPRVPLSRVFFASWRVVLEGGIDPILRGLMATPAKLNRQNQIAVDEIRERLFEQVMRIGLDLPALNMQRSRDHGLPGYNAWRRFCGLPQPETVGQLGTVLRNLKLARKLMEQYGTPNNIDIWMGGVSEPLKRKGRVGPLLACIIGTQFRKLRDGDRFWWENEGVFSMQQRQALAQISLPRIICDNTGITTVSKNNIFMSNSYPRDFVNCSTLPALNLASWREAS
# Chain of UniProt P50613 (whole entry, looked up): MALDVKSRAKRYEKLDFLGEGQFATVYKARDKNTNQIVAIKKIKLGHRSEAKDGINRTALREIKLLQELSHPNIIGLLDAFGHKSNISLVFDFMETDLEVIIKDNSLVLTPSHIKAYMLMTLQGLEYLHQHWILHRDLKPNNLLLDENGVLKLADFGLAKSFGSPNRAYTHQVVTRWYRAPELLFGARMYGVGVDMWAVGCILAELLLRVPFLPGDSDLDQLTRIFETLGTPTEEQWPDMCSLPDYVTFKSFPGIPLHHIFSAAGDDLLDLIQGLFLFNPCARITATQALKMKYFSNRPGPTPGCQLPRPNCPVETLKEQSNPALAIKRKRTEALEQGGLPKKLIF
# Chain of UniProt P23975 (whole entry, looked up): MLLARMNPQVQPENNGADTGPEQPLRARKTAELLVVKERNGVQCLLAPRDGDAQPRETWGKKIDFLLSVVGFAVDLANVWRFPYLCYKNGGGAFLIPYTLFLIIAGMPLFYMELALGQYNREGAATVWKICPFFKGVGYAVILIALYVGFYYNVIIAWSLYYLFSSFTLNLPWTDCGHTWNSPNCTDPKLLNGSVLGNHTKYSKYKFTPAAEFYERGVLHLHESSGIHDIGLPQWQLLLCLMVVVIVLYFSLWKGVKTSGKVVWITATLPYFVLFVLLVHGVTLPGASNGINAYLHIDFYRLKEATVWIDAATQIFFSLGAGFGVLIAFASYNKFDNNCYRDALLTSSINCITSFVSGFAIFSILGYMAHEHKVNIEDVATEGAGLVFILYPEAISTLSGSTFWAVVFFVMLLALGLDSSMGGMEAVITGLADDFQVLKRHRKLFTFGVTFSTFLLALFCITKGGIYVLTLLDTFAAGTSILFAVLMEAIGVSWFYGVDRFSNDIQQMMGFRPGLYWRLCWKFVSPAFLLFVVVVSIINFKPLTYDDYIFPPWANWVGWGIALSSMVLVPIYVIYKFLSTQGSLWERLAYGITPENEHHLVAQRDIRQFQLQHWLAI
# Chain of UniProt P32238 (whole entry, looked up): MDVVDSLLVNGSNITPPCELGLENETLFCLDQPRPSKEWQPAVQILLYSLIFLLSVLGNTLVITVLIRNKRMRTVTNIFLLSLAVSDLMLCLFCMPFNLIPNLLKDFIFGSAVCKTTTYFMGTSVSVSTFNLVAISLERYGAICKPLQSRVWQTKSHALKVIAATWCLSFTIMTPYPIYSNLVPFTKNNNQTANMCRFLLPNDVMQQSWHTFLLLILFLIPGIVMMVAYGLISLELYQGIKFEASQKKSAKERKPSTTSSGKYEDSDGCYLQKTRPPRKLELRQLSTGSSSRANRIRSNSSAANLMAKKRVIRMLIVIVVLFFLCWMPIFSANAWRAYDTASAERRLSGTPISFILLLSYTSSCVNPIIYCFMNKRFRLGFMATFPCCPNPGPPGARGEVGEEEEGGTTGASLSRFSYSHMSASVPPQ
# Chain of UniProt Q16832 (whole entry, looked up): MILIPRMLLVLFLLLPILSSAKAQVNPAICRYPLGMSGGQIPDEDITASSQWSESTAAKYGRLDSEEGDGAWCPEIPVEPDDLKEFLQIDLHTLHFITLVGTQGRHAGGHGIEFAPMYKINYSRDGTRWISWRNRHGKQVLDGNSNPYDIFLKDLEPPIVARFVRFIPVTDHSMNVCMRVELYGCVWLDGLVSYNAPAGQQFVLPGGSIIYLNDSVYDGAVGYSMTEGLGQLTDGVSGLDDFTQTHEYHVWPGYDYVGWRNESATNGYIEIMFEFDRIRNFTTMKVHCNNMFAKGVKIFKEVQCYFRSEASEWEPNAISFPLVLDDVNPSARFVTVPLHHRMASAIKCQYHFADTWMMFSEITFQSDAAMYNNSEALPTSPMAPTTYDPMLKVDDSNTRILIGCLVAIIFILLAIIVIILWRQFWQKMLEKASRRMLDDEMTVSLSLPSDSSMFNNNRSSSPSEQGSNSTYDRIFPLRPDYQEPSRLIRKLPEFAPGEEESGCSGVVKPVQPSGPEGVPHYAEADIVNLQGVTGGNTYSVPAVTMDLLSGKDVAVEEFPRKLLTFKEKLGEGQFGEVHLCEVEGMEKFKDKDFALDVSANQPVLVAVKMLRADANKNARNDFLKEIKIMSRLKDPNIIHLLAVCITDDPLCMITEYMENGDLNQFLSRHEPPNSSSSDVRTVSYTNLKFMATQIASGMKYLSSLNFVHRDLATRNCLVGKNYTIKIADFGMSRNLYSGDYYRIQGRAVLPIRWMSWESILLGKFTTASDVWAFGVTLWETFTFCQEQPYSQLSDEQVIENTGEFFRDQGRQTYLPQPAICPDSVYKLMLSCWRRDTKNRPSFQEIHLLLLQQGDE
Structure (SMILES),target,test,setting,inhibition
CCN1/C(=C/C(C)=O)Sc2ccc(F)cc21,"CCKAR (Homo sapiens, UniProt P32238)","ligand displacement, radioligand",10 µM,0%
CSc1ccccc1C(=O)NCc1cc(O)c(O)c(Br)c1,rep papain-like protease,"enzyme activity, inhibitor, FRET",10 µM,8.05%
CCCCC(=O)Nc1cc(F)c(-c2ccc3ncn(CCC)c(=O)c3c2)cn1,PIP4K2C,"binding, competition with immobilised ligand",0.5 µM,97.9%
CCCN(O)N=Nc1ccc(S(=O)(=O)Nc2onc(C)c2C)cc1,AMY2,"enzyme activity, inhibitor",300 µg/mL,73.7%
COCCOCCOCCNC(=O)c1sc2nc(C)cc(C(F)(F)F)c2c1N,NT5E,"enzyme activity, inhibitor",10 µM,11%
NC/C(=C\F)COc1cccc(Cn2c(=S)[nH]c(=O)c3[nH]cnc32)c1,"Myeloperoxidase (MPO, Homo sapiens, UniProt P05164)","enzyme activity, inhibitor, fluorescence",61.7 nM,79% and 90.8% and 65.1% and 76.3% and 94.3% and 78.8% and 61.6% and 85.3%
Cc1cc(NS(=O)(=O)c2ccc(N=NN(O)c3ccccc3)cc2)no1,AMY2,"enzyme activity, inhibitor",120 µg/mL,42.1%
CC[C@H](C)[C@H](NC(=O)[C@H](CCC(N)=O)NC(=O)[C@@H](NC(=O)[C@H](CCSC)NC(=O)[C@H](CCCCN)NC(=O)[C@H](CO)NC(=O)[C@@H](NC(=O)[C@H](CCSC)NC(=O)[C@H](CC(C)C)NC(=O)[C@H](CC(N)=O)NC(=O)[C@@H](NC(=O)[C@@H](NC(=O)[C@H](CO)NC(=O)[C@H](CC(C)C)NC(=O)[C@H](C)NC(=O)[C@H](CCCNC(=N)N)NC(=O)[C@H](CCC(=O)O)NC(=O)[C@H](Cc1ccc(O)cc1)NC(=O)[C@H](Cc1ccccc1)NC(=O)[C@H](C)NC(=O)[C@H](CC(N)=O)NC(=O)[C@@H](N)CCCCN)[C@@H](C)CC)[C@@H](C)CC)[C@@H](C)O)C(C)C)C(=O)N[C@@H](CC(N)=O)C(=O)N[C@H](C(=O)O)C(C)C,MAPK3,"enzyme activity, inhibitor, radiometric",100 µM,15%
COc1cc(CNC(=O)c2cccc3ccccc23)cc(Br)c1OC,rep papain-like protease,"enzyme activity, inhibitor, FRET",10 µM,17.2%
O=S(=O)(Nc1nccs1)c1ccc(N=NN(O)c2ccccc2)cc1,AMY2,"enzyme activity, inhibitor",120 µg/mL,31.6%
CCOC(=O)c1ccc(NC(=O)c2sc3nc(-c4ccccc4)cc(C(F)(F)F)c3c2N)cc1,NT5E,"enzyme activity, inhibitor, HPLC",10 µM,92%
CCCN(O)N=Nc1ccc(S(=O)(=O)Nc2nccs2)cc1,AMY2,"enzyme activity, inhibitor",20 µg/mL,10.5%
Cc1cc(O)c(-c2ccc([C@@H](C)CN(C)C)cc2)c2c1[nH]c(=O)c1sccc12,"Tyrosine-protein kinase JAK1, JH1 (JAK1, Homo sapiens, UniProt P23458)","enzyme activity, inhibitor",0.1 µM,0.218%
COc1cc(CNC(=O)c2cccc(C(F)(F)F)c2)cc(Br)c1OC,rep papain-like protease,"enzyme activity, inhibitor, FRET",10 µM,1.46%
N#Cc1c(C(F)(F)F)cc(-c2ccccc2)nc1SCC(=O)Nc1ccon1,NT5E,"enzyme activity, inhibitor",10 µM,17%
COc1cc(CNC(=O)c2ccc(OC(F)(F)F)cc2)cc(Br)c1OC,rep main protease,"enzyme activity, inhibitor, FRET",10 µM,25.9%
O=C(/C=C/c1ccc(O)cc1)CC(=O)/C=C/c1ccc(O)cc1,CDK7 with cyclin H,"enzyme activity, inhibitor, ADP detection",10 µM,48.9%
Cc1cc(C(F)(F)F)c2c(N)c(C(=O)NCc3ccccc3)sc2n1,NT5E,"enzyme activity, inhibitor",10 µM,30%
O=C(NCc1cc(O)c(O)c(Br)c1)N1CCCC1,rep papain-like protease,"enzyme activity, inhibitor, FRET",10 µM,111%
CCOC(=O)[C@@]12C[C@@H]1[C@@H](n1cnc3c(NCCCCc4ccccc4)nc(I)nc31)[C@H](O)[C@@H]2O,"SLC6A2 (Homo sapiens, UniProt P23975)","ligand displacement, radioligand",10 µM,7%
CN1CC(Oc2cnc(C#N)cc2-c2ccn3nc(NC(=O)C4CC4)cc3c2)C1,"DDR2 (Homo sapiens, UniProt Q16832)","enzyme activity, inhibitor",1 µM,-7%
Cc1noc(NS(=O)(=O)c2ccc(N=NN(O)c3ccccc3)cc2)c1C,AMY2,"enzyme activity, inhibitor",120 µg/mL,42.1%
O=C(Nc1ccccc1Cl)c1ccc2c(c1)C(=O)NC2=O,"MAOB (Homo sapiens, UniProt P27338)","enzyme activity, inhibitor",1 µM,< 5%
CC[C@H](C)[C@H](NC(=O)[C@H](CCC(N)=O)NC(=O)[C@H](CC(C)C)NC(=O)[C@H](CCSC)NC(=O)[C@H](CCCCN)NC(=O)[C@H](CO)NC(=O)[C@H](CO)NC(=O)[C@H](CCSC)NC(=O)[C@H](CC(C)C)NC(=O)[C@H](CC(N)=O)NC(=O)[C@@H](NC(=O)[C@@H](NC(=O)[C@H](CO)NC(=O)[C@H](CC(C)C)NC(=O)[C@H](CS)NC(=O)[C@H](CCCNC(=N)N)NC(=O)[C@H](CC(=O)O)NC(=O)[C@H](Cc1c[nH]c2ccccc12)NC(=O)[C@H](Cc1ccccc1)NC(=O)[C@H](C)NC(=O)[C@H](CCC(=O)O)NC(=O)[C@@H](N)CCCCN)C(C)C)[C@@H](C)CC)C(=O)N[C@@H](CC(N)=O)C(=O)N[C@@H](C)C(=O)O,MAPK3,"enzyme activity, inhibitor, radiometric",50 µM,3%
O=C(NCc1ccc(O)c(O)c1)c1ccccc1,rep papain-like protease,"enzyme activity, inhibitor, FRET",10 µM,38.9%
CC1(C)[C@@H](OC(=O)CCC(=O)O)CC[C@]2(C)[C@H]3C(=O)C=C4[C@@H]5C[C@@](C)(C(=O)O)CC[C@]5(C)CC[C@@]4(C)[C@]3(C)CC[C@@H]12,"SLC22A11 (Homo sapiens, UniProt Q9NSA0)","transporter uptake, inhibitor",25 µM,90.5%
CC1(C)[C@@H](O)CC[C@]2(C)[C@H]3C(=O)C=C4[C@H]5C[C@@](C)(C(=O)O)CC[C@]5(C)CC[C@@]4(C)[C@]3(C)CC[C@@H]12,CDK7 with cyclin H,"enzyme activity, inhibitor, ADP detection",10 µM,-9.7%
CCCCC(=O)Nc1ccc(-c2ccc3ncn(CCC)c(=O)c3c2)cn1,PIP4K2C,binding,0.5 µM,100%
O=C1C[C@@H](c2ccc(O)cc2)Oc2cc(O)cc(O)c21,AMY2,"enzyme activity, inhibitor","50 µM, 30 min",32.8%
COc1cc(CNC(=O)CSc2nc(C)cc(-c3ccccc3)c2C#N)cc(OC)c1OC,NT5E,"enzyme activity, inhibitor",10 µM,29%
COc1cc(CNC(=O)c2cccc(Br)c2)cc(Br)c1OC,rep main protease,"enzyme activity, inhibitor, FRET",10 µM,23.2%
Cc1cccc(N(O)N=Nc2ccc(S(=O)(=O)Nc3cc(C)on3)cc2)c1,AMY2,"enzyme activity, inhibitor",60 µg/mL,21.1%

# Some of these lines once more:
Structure (SMILES),target,test,setting,inhibition
CC[C@H](C)[C@H](NC(=O)[C@H](CCC(N)=O)NC(=O)[C@H](CC(C)C)NC(=O)[C@H](CCSC)NC(=O)[C@H](CCCCN)NC(=O)[C@H](CO)NC(=O)[C@H](CO)NC(=O)[C@H](CCSC)NC(=O)[C@H](CC(C)C)NC(=O)[C@H](CC(N)=O)NC(=O)[C@@H](NC(=O)[C@@H](NC(=O)[C@H](CO)NC(=O)[C@H](CC(C)C)NC(=O)[C@H](CS)NC(=O)[C@H](CCCNC(=N)N)NC(=O)[C@H](CC(=O)O)NC(=O)[C@H](Cc1c[nH]c2ccccc12)NC(=O)[C@H](Cc1ccccc1)NC(=O)[C@H](C)NC(=O)[C@H](CCC(=O)O)NC(=O)[C@@H](N)CCCCN)C(C)C)[C@@H](C)CC)C(=O)N[C@@H](CC(N)=O)C(=O)N[C@@H](C)C(=O)O,MAPK3,"enzyme activity, inhibitor, radiometric",50 µM,3%
O=C(NCc1ccc(O)c(O)c1)c1ccccc1,rep papain-like protease,"enzyme activity, inhibitor, FRET",10 µM,38.9%
